Results of several laboratories.
Compare with care: the assays were run in different laboratories. ± gives the spread as reported.
Chain of UniProt P42574 (whole entry, looked up): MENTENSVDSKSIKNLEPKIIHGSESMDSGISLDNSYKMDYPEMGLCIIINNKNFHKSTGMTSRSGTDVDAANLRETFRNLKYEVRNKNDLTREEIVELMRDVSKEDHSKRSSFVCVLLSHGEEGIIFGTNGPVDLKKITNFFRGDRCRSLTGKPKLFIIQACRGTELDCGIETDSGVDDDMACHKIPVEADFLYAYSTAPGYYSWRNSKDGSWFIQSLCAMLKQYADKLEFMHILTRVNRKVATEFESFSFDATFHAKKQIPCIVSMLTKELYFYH
Chain of UniProt P05804 (whole entry, looked up): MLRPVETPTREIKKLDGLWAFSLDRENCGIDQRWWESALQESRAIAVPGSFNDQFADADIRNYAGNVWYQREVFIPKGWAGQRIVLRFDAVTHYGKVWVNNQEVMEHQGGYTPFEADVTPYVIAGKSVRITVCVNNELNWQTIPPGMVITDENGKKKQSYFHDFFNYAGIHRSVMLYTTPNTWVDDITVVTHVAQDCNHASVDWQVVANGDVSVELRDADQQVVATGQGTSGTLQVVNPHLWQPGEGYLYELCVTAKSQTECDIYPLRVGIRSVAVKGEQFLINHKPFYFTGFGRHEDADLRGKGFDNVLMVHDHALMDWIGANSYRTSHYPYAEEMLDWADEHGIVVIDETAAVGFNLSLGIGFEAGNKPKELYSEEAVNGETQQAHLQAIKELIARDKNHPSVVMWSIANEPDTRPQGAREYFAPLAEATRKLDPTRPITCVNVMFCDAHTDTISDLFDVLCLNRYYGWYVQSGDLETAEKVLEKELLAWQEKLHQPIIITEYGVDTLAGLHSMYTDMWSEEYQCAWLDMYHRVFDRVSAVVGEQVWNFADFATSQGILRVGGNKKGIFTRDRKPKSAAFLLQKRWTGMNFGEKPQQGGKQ
Chain of UniProt P00591 (whole entry, looked up): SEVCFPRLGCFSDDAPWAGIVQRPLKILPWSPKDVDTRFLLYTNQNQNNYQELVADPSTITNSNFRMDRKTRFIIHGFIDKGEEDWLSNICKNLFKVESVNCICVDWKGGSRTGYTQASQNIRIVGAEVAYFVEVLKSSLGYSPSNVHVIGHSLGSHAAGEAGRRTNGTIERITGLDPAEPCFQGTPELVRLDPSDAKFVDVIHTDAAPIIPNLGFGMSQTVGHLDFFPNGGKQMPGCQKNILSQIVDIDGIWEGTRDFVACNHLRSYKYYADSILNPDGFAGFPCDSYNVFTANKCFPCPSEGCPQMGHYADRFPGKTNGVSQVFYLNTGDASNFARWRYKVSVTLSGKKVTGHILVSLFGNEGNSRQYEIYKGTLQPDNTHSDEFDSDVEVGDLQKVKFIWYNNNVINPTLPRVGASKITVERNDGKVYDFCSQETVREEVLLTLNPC
Chain of UniProt P56817 (whole entry, looked up): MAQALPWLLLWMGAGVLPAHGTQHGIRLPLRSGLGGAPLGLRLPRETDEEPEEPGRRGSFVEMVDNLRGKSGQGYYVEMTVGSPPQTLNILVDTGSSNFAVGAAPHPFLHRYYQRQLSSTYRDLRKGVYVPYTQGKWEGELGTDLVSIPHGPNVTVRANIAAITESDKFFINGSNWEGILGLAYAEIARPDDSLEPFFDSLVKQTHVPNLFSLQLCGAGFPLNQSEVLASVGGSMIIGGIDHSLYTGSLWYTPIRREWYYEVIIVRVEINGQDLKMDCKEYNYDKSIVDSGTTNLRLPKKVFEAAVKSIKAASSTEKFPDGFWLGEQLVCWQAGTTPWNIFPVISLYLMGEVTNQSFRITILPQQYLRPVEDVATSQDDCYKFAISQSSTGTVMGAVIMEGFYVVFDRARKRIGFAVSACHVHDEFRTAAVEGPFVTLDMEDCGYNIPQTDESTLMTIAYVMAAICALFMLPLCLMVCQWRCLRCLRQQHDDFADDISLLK
Chain of UniProt P41020 (whole entry, looked up): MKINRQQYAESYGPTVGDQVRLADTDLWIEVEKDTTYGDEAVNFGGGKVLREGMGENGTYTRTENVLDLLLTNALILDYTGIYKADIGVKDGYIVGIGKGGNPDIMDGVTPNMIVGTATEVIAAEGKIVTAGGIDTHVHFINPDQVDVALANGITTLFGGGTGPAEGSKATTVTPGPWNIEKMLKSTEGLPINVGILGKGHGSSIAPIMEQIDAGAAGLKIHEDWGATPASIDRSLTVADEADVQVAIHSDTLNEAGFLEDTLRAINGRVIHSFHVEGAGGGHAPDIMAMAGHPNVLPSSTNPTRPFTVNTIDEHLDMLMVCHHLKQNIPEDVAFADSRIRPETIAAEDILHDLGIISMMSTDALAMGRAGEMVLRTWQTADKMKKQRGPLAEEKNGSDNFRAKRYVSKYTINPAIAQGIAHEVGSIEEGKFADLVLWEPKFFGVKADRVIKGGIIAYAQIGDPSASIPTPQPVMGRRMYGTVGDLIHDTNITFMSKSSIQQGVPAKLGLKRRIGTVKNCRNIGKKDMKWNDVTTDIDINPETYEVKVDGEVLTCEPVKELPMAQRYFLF
Chain of UniProt P15056 (whole entry, looked up): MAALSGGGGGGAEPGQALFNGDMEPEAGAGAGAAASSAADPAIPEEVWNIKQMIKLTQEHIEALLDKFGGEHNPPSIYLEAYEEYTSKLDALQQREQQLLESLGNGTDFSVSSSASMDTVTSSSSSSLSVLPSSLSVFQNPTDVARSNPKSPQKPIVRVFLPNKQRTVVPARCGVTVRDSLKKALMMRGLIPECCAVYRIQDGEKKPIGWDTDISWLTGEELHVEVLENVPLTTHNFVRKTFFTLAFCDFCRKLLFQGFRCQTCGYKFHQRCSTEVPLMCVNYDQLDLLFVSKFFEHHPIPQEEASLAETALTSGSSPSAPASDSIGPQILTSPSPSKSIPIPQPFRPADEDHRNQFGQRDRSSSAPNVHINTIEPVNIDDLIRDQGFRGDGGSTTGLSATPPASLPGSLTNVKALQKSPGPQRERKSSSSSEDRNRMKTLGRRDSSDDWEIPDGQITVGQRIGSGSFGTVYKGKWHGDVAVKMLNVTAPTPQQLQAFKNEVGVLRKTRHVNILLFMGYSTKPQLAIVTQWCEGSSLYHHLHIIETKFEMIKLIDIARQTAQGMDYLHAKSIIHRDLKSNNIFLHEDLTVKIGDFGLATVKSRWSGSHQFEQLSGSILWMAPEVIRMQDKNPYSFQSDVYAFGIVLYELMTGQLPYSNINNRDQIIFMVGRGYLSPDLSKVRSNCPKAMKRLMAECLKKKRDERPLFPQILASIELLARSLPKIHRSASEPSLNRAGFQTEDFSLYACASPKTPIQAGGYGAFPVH
Chain of UniProt P40763 (whole entry, looked up): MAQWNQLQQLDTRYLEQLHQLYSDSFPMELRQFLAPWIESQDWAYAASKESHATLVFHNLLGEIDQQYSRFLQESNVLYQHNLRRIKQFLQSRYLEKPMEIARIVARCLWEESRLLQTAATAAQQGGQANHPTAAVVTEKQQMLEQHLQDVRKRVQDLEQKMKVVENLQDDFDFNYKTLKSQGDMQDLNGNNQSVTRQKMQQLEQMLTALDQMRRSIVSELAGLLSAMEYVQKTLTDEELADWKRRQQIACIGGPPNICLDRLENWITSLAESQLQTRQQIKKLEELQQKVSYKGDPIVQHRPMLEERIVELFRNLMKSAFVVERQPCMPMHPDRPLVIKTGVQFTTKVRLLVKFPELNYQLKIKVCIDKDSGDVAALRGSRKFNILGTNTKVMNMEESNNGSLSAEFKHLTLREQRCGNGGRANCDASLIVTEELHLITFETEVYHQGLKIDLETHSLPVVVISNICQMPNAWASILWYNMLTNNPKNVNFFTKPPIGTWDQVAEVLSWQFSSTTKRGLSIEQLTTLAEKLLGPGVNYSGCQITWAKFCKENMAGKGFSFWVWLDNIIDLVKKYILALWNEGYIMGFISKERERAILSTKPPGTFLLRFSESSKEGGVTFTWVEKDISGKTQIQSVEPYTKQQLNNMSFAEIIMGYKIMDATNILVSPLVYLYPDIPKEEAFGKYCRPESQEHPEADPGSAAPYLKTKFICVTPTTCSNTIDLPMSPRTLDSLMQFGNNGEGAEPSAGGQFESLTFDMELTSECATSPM
Chain of UniProt Q86X55 (whole entry, looked up): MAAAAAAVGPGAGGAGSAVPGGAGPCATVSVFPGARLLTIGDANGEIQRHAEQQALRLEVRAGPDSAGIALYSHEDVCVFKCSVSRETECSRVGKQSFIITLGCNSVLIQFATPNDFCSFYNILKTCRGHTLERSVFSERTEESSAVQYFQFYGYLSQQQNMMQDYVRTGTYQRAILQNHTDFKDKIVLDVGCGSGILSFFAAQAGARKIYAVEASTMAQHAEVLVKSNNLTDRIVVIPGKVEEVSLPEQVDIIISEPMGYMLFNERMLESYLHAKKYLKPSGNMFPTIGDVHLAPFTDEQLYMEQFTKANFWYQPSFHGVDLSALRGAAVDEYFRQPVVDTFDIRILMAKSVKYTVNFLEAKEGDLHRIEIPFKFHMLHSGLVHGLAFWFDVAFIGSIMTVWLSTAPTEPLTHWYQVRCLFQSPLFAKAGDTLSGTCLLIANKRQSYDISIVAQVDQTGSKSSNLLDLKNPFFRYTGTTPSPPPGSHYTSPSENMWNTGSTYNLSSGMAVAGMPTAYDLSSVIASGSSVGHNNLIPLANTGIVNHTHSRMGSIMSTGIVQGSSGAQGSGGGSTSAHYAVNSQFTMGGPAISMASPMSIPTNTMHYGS
Chain of UniProt P04228 (whole entry, looked up): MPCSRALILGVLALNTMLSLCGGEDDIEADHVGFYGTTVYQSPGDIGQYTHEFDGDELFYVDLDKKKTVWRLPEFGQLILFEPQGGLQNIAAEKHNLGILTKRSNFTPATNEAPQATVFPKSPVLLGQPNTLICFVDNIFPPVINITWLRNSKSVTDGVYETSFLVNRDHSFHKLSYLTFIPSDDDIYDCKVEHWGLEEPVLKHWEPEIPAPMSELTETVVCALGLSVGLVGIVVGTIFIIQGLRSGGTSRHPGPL

CC(C)[C@@H]1NC(=O)[C@H](CCC(N)=O)NC(=O)[C@@H](Cc2ccc(O)cc2)NC(=O)CSC[C@@H](C(N)=O)NC(=O)[C@H](CC(=O)O)NC(=O)[C@H](CCC(=O)O)NC(=O)[C@H](Cc2c[nH]c3ccccc23)NC(=O)[C@@H]2CCCN2C(=O)[C@H](CO)N(C)C(=O)[C@H](C)NC(=O)[C@H](Cc2c[nH]c3ccccc23)NC(=O)[C@H](Cc2c[nH]c3ccccc23)NC(=O)[C@H](C(C)C)NC(=O)[C@H]([C@@H](C)O)NC1=O — IC50 (2,3-bisphosphoglycerate-independent phosphoglycerate mutase (gpmI, Staphylococcus aureus, UniProt Q6GIL5); enzyme activity, inhibitor): 0.045 µM
CN(Cc1ccccc1)CP(C)(=O)O — IC50 (Urease subunit alpha (Sporosarcina pasteurii, UniProt P41020); enzyme activity, inhibitor, indophenol colorimetric; 20 min, pH 7.0, 37 °C, with: 50 mM urea): > 1000 µM
CSCC[C@H](NC(=O)CNC(=O)[C@H](CCCCN)NC(=O)[C@H](CC(C)C)NC(=O)[C@@H]1CCCN1C(=O)[C@H](CO)NC(=O)[C@H](Cc1c[nH]cn1)NC(=O)[C@H](Cc1c[nH]c2ccccc12)NC(=O)[C@H](CCCNC(=N)N)NC(=O)[C@H](CC(C)C)NC(=O)[C@H](CCCNC(=N)N)NC(=O)[C@H](Cc1c[nH]c2ccccc12)NC(=O)[C@H](CS)NC(=O)CCCCCNC(=O)CN1CCN(CC(=O)O)CCN(CC(=O)O)CCN(CC(=O)O)CC1)C(=O)O [copper-64 labelled] — IC50 (PROM1 (Homo sapiens, UniProt O43490); binding, saturation binding; Huh-7): 0.045 µM
CC1C(=NOCc2cc(-c3ccc(Cl)cc3)no2)C(C)C(c2ccc(Br)cc2)OC1c1ccc(Br)cc1 (centres unmarked) — IC50 (DNA gyrase subunit B (gyrB, Escherichia coli, UniProt P0AES6); ATPase activity, inhibitor): 5.87 µM
C/C(=C\C(=O)N[C@@H](CC(C)C)C(=O)N1C[C@@H](F)C[C@H]1C(=O)N[C@H](C)CCC(N)=O)c1ccc(OP(=O)(O)O)cc1 — IC50 (Signal transducer and activator of transcription 3 (STAT3, Homo sapiens, UniProt P40763); phosphopeptide binding, inhibitor, fluorescence polarization): 0.246 ± 0.062 µM
CN(C)c1ccc(/C=C/C(=O)c2ccc(N3CCNCC3)cc2)cc1 — IC50 (Beta-secretase 1 (BACE1, Homo sapiens, UniProt P56817); enzyme activity, inhibitor, fluorescence; with preincubation): 11.6 µM
CC(=O)N[C@@H](Cc1ccccc1)C(=O)N[C@@H](CC(C)C)C(=O)N[C@H](C(=O)N[C@@H](CC(=O)O)C(=O)CCl)[C@@H](C)O — IC50 (Caspase-3 (CASP3, Homo sapiens, UniProt P42574); enzyme activity, inhibitor, fluorescence): 56 µM
c1cc2c(s1)CCOC21CCN(Cc2ccc3c(c2)OCCO3)CC1 — IC50 (Cytochrome P450 3A4 (CYP3A4, Homo sapiens, UniProt P08684); enzyme activity, inhibitor; with: VG substrate): 26 µM
NCCNc1nnnc2c1sc1nc(N3CCOCC3)c3c(c12)CCCC3 — IC50 (Beta-glucuronidase (uidA, Escherichia coli, UniProt P05804); enzyme activity, inhibitor): 2.6 µM
Nc1ncnc2c1ncn2[C@@H]1O[C@H](CSCCNC(=O)NCCc2ccccc2)[C@@H](O)[C@H]1O — IC50 (Histone-arginine methyltransferase CARM1 (CARM1, Homo sapiens, UniProt Q86X55); enzyme activity, inhibitor, radiometric): 10 µM
O=C1NC(=S)NC(=O)C1=Cc1ccc(-c2cccc([N+](=O)[O-])c2)o1 — IC50 (Serine/threonine-protein kinase B-raf (BRAF, Homo sapiens, UniProt P15056); enzyme activity, inhibitor, ELISA): 6.6 µM
COc1cc(O)c2c(=O)oc3cc(O)cc(C)c3c2c1 — IC50 (Pancreatic triacylglycerol lipase (PNLIP, Sus scrofa, UniProt P00591); enzyme activity, inhibitor, fluorescence): 70.6 µM
CC(C)C[C@H](NC(=O)[C@H](CO)NC(=O)[C@H](Cc1ccc(O)cc1)NC(=O)CNC(=O)[C@H](CCCNC(=N)N)NC(=O)[C@H](Cc1ccc(O)cc1)NC(=O)[C@H](CC(N)=O)NC(=O)[C@@H](N)CC(=O)O)C(=O)NCC(=O)N[C@@H](CC(N)=O)C(N)=O — IC50 (MHC class II I-A g7 (Mus musculus, UniProt P04228+Q31135); peptide binding, competitor, competition ELISA; at least 24 h, pH 7.0, room temperature, with: biotinylated HEL 10-23 200 nM): > 50 µM
O=C(NCCN1CCC2(CC1)C(=O)NCN2C(=O)C1CC1)c1ccc2ccccc2c1 — IC50 (Phospholipase D1 (Homo sapiens, UniProt Q13393); enzyme activity, inhibitor): 3.1 µM

For quick reference, copied from above:
CC(=O)N[C@@H](Cc1ccccc1)C(=O)N[C@@H](CC(C)C)C(=O)N[C@H](C(=O)N[C@@H](CC(=O)O)C(=O)CCl)[C@@H](C)O — IC50 (Caspase-3 (CASP3, Homo sapiens, UniProt P42574); enzyme activity, inhibitor, fluorescence): 56 µM
